{"data": "Results collected from several papers", "note": "A part holds a random share of what one study measured. Positions count from the first letter of the parent shown."}
{"data": "Series 1", "target": "CCNA2, cyclin fold, Cln2 fusion (human)", "technique": "yeast growth competition, sequencing", "sample": "yeast", "setting": "strong parent motif", "baseline": "not given", "direction": "higher = stronger binding", "starting sequence": "viral docking peptide; TSVRRALFTGGSD; partner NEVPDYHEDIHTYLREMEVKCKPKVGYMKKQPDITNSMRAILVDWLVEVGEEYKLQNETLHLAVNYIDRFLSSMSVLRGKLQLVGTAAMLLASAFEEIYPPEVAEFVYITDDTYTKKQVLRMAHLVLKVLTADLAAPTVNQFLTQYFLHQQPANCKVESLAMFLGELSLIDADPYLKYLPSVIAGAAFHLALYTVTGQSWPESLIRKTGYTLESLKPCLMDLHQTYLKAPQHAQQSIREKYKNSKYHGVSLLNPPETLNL"}
{"Variant": "TSVRMALFTGGSD [R5M]", "normalised enrichment score": 1.39}
{"Variant": "TSVRRALFIGGSD [T9I]", "normalised enrichment score": 5.87}
{"Variant": "TSVRRANFTGGSD [L7N]", "normalised enrichment score": 0.274}
{"Variant": "TSERRALFTGGSD [V3E]", "normalised enrichment score": 0.33}
{"Variant": "TSVRRILFTGGSD [A6I]", "normalised enrichment score": 4.55}
{"Variant": "TSVRRALDTGGSD [F8D]", "normalised enrichment score": 0.378}
{"Variant": "TKVRRALFTGGSD [S2K]", "normalised enrichment score": 6.67}
{"Variant": "TSVRPALFTGGSD [R5P]", "normalised enrichment score": -0.595}
{"Variant": "TSVRRAWFTGGSD [L7W]", "normalised enrichment score": 0.541}
{"Variant": "TSKRRALFTGGSD [V3K]", "normalised enrichment score": 0.966}
{"Variant": "TSVRAALFTGGSD [R5A]", "normalised enrichment score": 0.731}
{"Variant": "TSVRRALFTGFSD [G11F]", "normalised enrichment score": 6.01}
{"Variant": "TSVRLALFTGGSD [R5L]", "normalised enrichment score": 0.438}
{"Variant": "TSRRRALFTGGSD [V3R]", "normalised enrichment score": 1.92}
{"Variant": "TSVRRQLFTGGSD [A6Q]", "normalised enrichment score": 6.41}
{"data": "Series 2", "target": "UDP-N-acetylglucosamine--peptide N-acetylglucosaminyltransferase 110 kDa subunit (OGT, Homo sapiens, UniProt O15294)", "observed": "binding", "technique": "phage display NGS", "molecule type": "peptide", "setting": "panning round 2", "baseline": "input library", "Target sequence (O15294 1-1046)": "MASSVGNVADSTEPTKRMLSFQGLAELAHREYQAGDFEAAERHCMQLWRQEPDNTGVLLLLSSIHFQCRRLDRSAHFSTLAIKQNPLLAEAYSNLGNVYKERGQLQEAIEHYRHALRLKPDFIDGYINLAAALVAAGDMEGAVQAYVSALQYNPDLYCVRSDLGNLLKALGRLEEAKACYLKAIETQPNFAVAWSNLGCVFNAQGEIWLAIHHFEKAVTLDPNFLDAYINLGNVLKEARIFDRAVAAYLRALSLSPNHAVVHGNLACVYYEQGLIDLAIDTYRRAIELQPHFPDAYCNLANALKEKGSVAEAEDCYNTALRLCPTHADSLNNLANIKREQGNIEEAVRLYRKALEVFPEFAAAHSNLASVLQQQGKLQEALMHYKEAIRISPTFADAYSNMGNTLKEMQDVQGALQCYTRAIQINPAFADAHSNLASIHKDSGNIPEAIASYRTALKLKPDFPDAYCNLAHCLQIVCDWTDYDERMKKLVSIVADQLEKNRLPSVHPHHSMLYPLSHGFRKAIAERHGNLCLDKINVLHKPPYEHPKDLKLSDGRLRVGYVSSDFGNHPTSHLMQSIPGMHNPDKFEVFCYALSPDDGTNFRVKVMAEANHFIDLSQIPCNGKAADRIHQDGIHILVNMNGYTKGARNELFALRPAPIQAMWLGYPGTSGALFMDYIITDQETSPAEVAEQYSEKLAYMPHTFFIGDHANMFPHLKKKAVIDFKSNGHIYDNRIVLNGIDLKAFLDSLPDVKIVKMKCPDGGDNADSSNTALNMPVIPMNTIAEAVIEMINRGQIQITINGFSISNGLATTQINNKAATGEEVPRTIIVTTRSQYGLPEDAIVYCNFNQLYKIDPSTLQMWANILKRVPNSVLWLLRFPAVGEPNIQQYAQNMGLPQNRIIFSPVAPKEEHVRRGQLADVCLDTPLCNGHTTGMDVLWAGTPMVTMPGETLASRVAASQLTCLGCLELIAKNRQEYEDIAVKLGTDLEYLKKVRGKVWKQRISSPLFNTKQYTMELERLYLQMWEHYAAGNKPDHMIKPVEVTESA"}
{"Molecule": "DWSHMRSHNHASFAH", "minimum log2 enrichment ratio": 2.64}
{"Molecule": "FNFTPYYQIAPGIRS", "minimum log2 enrichment ratio": 2.88}
{"Molecule": "HIHQHIHQEEQWDYH", "minimum log2 enrichment ratio": 2.39}
{"data": "Series 3", "target": "Prothrombin, mature alpha-thrombin (F2, Homo sapiens, UniProt P00734)", "technique": "aptamer microarray, sandwich", "molecule type": "DNA with 2'F-ANA", "sample": "in vitro", "tested at": "200 nM", "setting": "whole 15-mer aptamer, many near background", "together with": "Cy3 exosite-II aptamer, 400 nM", "direction": "higher = stronger binding", "strand": "GGTTGGTGTGGTTGG"}
{"Modification": "2'F-ANA at 1 3 6 12 13 14", "mean fluorescence intensity [a.u.]": 107}
{"Modification": "2'F-ANA at 2 6 8 9 13 14", "mean fluorescence intensity [a.u.]": 110}
{"Modification": "2'F-ANA at 1 3 4 5 10 12 13 14", "mean fluorescence intensity [a.u.]": 47.7}
{"Modification": "2'F-ANA at 1 3 4 5 6 7 8 10 15", "mean fluorescence intensity [a.u.]": 47}
{"Modification": "2'F-ANA at 2 6 7 9 12 13 15", "mean fluorescence intensity [a.u.]": 449}
{"Modification": "2'F-ANA at 3 4 6 9 10 12 13", "mean fluorescence intensity [a.u.]": 247}
{"Modification": "2'F-ANA at 1 4 5 6 7 8 10 11 14 15", "mean fluorescence intensity [a.u.]": 93.1}
{"Modification": "2'F-ANA at 2 3 5 6 11 14 15", "mean fluorescence intensity [a.u.]": 47.3}
{"data": "Series 4", "target": "Histone acetyltransferase KAT6A, winged helix 2, GST fusion (KAT6A, Homo sapiens, UniProt Q92794, residues 85-181)", "technique": "protein binding microarray", "molecule type": "double-stranded DNA, one strand shown", "sample": "in vitro", "tested at": "not given", "setting": "8-mer, flanks averaged, mean of 2 arrays, mostly near background", "baseline": "not given", "direction": "higher = stronger binding", "Target sequence (chain)": "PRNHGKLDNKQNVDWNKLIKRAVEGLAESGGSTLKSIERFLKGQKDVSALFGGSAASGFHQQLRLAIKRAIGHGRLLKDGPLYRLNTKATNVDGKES"}
{"Strand": "CCGCATGA", "E-score": 0.0529}
{"Strand": "AGACATTG", "E-score": -0.106}
{"Strand": "AGTCGAAA", "E-score": 0.0636}
{"Strand": "ACGGTACG", "E-score": -0.098}
{"Strand": "AAGTTACC", "E-score": 0.107}
{"Strand": "CAAGGCCA", "E-score": -0.00784}
{"Strand": "CCGAGCTC", "E-score": 0.0113}
{"Strand": "AAGCCGCG", "E-score": 0.127}
{"note": "Repeated from above (series 2):"}
{"Molecule": "DWSHMRSHNHASFAH", "minimum log2 enrichment ratio": 2.64}
{"Molecule": "FNFTPYYQIAPGIRS", "minimum log2 enrichment ratio": 2.88}
{"Molecule": "HIHQHIHQEEQWDYH", "minimum log2 enrichment ratio": 2.39}
